Results collected from several papers.
± gives the spread as reported.
Chain of UniProt P28335 (whole entry, looked up): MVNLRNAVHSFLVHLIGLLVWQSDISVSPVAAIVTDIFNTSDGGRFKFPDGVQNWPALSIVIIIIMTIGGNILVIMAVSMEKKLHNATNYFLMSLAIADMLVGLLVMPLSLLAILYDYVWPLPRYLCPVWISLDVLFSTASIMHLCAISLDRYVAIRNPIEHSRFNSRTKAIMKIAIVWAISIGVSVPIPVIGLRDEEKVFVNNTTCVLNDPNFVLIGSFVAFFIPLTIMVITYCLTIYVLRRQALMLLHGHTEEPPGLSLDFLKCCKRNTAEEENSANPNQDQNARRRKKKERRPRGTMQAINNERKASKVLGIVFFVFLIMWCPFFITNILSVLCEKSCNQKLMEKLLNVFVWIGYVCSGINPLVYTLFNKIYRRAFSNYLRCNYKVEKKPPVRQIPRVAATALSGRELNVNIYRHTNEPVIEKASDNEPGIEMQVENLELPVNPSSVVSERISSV

`C[C@H]1CNCCc2ccc(Cl)cc21` gave a half-life of 1.8 h (male Sprague-Dawley rat, plasma; subcutaneous, 1 mg/kg, single dose).
With `CN[C@@](C)(C[18F])C(=O)O` the tracer uptake was 2.2 %ID/g (SK-OV-3 tumour model; host not given, lung; 15 min, tumour-bearing).
`c1cc([C@H]2CC[C@]3(CC2)OO[C@]2(O3)C3CC4CC(C3)CC2C4)ccc1OCCN1CCOCC1` has a Cmax of 2220 ng/mL (human, plasma; oral, 800 mg, single dose, fed).
For `O[C@H]1CCCN[C@@H]1CCCn1cnc2c(Cl)c(Cl)ccc21`, the Cmax was 514 ng/mL (human, plasma; oral, 500 mg, single dose, healthy volunteers).
For `COc1ccc(C[C@@H]2NC(=O)[C@H]([C@@H](C)O)NC(=O)[C@@H]3[C@@H]4CCN3C(=O)[C@@H]3Cc5cn(c6ccc(F)cc56)CCCCCCN(Cc5ccc(cc5)CCNC(=O)[C@]5(C)CCCN5C2=O)C(=O)CCC(=O)N[C@@H](C)C(=O)N[C@H](CNC(=O)CCCCC[N+](C)(C)C)C(=O)N[C@@H](Cc2cccc(c2)CNC(=O)CO4)C(=O)N3)cc1`, the Cmax was 5.28 nM (healthy humans, plasma; oral, 10 mg once daily, day 14, dosed 30 min post-meal, together with: sodium caprate 360 mg).
With `c1ccc(CCN2CCCCC2)cc1` the Ki was greater than 10 µM (5-hydroxytryptamine receptor 2C (HTR2C, Homo sapiens, UniProt P28335); binding; NIH-3T3-Po; together with: [3H]mesulergine 0.40 nM).
`Cc1cc(C(C#N)c2ccc(Cl)cc2)c(Cl)cc1NC(=O)c1cc(I)cc(I)c1O` (stereo not shown) has a Cmax of 78000 ± 14500 ng/mL (parasitized Corriedale lambs, plasma; oral, 10 mg/kg).
The Cmax of `O=c1[nH]c(Cc2ccccn2)nc2c1cnn2C1CCOCC1` is reported as 56.4 nM (male human, plasma; oral, 5 mg, single dose).
`CNC(C)Cc1ccc2c(c1)OCO2` (racemic): “subjective drug effect rating” 44.4 (Drug Effects Questionnaire, refers to: Feel Drug; human; oral, 1.5 mg/kg, mean over session, unit not given; reference: pre-dose baseline).
`[123I]c1cncc(OC[C@@H]2CCN2)c1` gave a tissue/plasma ratio of 15.3 (SPECT; human, brain cortex; intravenous bolus, 9.1 mCi; reference: plasma).
For `COC(=O)N[C@H](C(=O)N1CCC[C@H]1C(=O)Nc1ccc([C@@H]2CC[C@@H](c3ccc(NC(=O)[C@@H]4CCCN4C(=O)[C@@H](NC(=O)OC)C(C)C)cc3)N2c2ccc(C(C)(C)C)cc2)cc1)C(C)C`, the Cmax was 110 ng/mL (healthy human volunteers, plasma; oral, dose not given, together with: rosuvastatin plus 2D regimen).
With `CC[C@@]1(O)C(=O)OCc2c1cc1n(c2=O)Cc2cc3c(CN(C)C)c(O)ccc3nc2-1` the Cmax was 12.4 ng/mL (human patients, plasma; oral, 2.5 mg daily for 5 days, geometric mean, together with: pazopanib 800 mg daily).
For `CC[C@H](C)[C@H](NC(=O)[C@@H](N)CCCNC(=N)N)C(=O)N[C@H](C(=O)N1CCC[C@H]1C(=O)N[C@@H](C)C(N)=O)C(C)C`, the Cmax was 1160 ± 592 ng/mL (healthy volunteers, both sexes, plasma; intravenous infusion, 0.5 mg/kg daily, day 7, multiple ascending dose).
`O=C(CC(=O)c1ccccc1)c1ccccc1` has a Cmax of 77500 nM (male C57BL/6J mice, Nrf2 wild type, plasma; po, 500 mg/kg).
`CCCCCOc1ccc(-c2cc(-c3ccc(C(=O)N[C@H]4C[C@@H](O)[C@@H](O)NC(=O)[C@@H]5[C@@H](O)[C@@H](C)CN5C(=O)[C@H]([C@H](O)CC(N)=O)NC(=O)[C@H]([C@H](O)[C@@H](O)c5ccc(O)c(OS(=O)(=O)O)c5)NC(=O)[C@@H]5C[C@@H](O)CN5C(=O)[C@H]([C@@H](C)O)NC4=O)cc3)no2)cc1` gave a Cmax of 28100 ng/mL (young infants under 1000 g, plasma; intravenous infusion, 10 mg/kg/day, day 4, mean, 1 h infusion, repeat dosing).
The Cmax of `Cc1cnc(C(=O)N[C@H]2CCCCC/C=C\[C@@H]3C[C@@]3(C(=O)NS(=O)(=O)C3CC3)NC(=O)[C@@H]3C[C@@H](Oc4nc5ccccc5c5ccccc45)CN3C2=O)cn1` is reported as 455 ng/mL (healthy human volunteers, plasma; oral, dose not given, alone, escitalopram interaction study).

Excerpt of the above:
The Cmax of `O=c1[nH]c(Cc2ccccn2)nc2c1cnn2C1CCOCC1` is reported as 56.4 nM (male human, plasma; oral, 5 mg, single dose).
